# Published values pooled from the literature.
# Compare with care: the assays were run in different laboratories. “And” joins repeats or separate records; there may be more than shown. ± gives the spread as reported.
# UniProt P08183, sequence (whole entry, looked up): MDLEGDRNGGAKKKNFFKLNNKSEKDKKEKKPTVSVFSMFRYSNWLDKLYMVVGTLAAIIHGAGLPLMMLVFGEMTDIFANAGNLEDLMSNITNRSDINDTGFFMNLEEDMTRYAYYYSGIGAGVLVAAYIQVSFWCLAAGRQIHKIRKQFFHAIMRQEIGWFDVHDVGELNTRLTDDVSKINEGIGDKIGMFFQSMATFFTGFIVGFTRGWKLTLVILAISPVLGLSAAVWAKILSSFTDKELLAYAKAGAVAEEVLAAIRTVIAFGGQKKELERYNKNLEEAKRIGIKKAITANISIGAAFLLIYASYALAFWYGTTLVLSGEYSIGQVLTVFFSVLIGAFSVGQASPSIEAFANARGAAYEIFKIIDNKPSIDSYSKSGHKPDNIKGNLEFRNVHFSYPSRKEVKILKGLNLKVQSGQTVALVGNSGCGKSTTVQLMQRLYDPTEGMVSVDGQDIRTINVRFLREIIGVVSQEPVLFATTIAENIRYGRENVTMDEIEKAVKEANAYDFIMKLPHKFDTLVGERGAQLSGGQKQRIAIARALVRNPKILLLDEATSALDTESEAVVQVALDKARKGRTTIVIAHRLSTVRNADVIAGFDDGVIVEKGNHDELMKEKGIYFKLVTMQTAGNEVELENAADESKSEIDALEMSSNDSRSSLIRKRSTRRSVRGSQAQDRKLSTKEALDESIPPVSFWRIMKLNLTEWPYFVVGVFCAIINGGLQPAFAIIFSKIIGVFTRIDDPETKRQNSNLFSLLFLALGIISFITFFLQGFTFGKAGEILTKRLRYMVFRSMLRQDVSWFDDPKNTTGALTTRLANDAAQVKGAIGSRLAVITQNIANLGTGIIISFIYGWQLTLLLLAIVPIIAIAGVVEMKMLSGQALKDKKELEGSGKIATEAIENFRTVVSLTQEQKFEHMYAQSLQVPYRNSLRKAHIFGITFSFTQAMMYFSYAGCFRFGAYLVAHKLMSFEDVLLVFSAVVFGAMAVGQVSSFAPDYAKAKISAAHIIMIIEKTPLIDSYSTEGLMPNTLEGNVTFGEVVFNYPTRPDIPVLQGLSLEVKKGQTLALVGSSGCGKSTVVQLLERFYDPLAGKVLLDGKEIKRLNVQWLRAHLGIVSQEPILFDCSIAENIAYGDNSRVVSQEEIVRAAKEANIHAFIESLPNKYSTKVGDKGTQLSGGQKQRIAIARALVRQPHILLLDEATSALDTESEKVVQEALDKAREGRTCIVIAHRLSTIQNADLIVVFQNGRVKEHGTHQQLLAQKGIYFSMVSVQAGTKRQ
# UniProt P22309, sequence (whole entry, looked up): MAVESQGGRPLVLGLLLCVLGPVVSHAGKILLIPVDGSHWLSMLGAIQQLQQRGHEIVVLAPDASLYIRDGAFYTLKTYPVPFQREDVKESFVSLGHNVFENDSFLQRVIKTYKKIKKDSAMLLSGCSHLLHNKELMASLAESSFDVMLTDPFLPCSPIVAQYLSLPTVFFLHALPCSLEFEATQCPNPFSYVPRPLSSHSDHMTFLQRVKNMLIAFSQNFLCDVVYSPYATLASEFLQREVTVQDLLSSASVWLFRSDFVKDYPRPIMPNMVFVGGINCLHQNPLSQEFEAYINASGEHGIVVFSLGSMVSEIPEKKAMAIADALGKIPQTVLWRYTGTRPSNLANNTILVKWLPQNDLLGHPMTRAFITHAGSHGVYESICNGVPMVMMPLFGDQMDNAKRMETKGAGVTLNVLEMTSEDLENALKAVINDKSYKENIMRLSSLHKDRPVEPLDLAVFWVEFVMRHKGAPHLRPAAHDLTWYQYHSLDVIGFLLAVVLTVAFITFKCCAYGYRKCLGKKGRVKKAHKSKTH
Compound,tested on,assay,system,conditions,scale,quantity,result
CN[C@]1(c2ccccc2Cl)CCCCC1=O,"UGT1A1 (Homo sapiens, UniProt P22309)",enzyme activity,,30 µM,,inhibition,2%
[Cl-].[Cl-].[Pt+2].[Ru+2].c1ccc(-c2nccnc2-c2ccccn2)nc1.c1cnc2c(c1)ccc1cccnc12.c1cnc2c(c1)ccc1cccnc12,Danio rerio,,embryos,"75 µM, 48 h",,hatching rate,0%
COc1cc2c(Oc3ccc4[nH]c(C)cc4c3F)ccnc2cc1OCC1(N)CC1,,,paediatric recurrent refractory sarcoma,10 mg,,Vomiting incidence,50%
COc1cccc(-c2n[nH]c(SCc3ccccn3)n2)c1OC,Salmonella typhimurium,"Ames test, plate incorporation",TA1535,"0.50 mg/plate, without S9",,revertant colonies per plate,12
O=c1ccc2ccccc2o1,NHEK,cell count,,"concentration not given, 6 h, phospholipidosis and steatosis panel",,chance response,0.04%
C[C@]1(CO)Cc2ncn(-c3ccc(C#N)c(Cl)c3)c2C(=O)O1,,investigator-assessed,human,"3 mg multiple doses, fasted",,subjects with drug-related TEAEs,22.2%
CC(=O)N1CCC(C(=O)N2CCN3C(=O)c4cc(-c5ccccc5)ccc4NC(=O)C3C2)CC1 (stereo not drawn),Escherichia coli,,WP2 uvrA,"500 µg/plate, without S9",,revertants per plate,20.5
CC(=O)OC[C@H]1O[C@@H](Oc2cc(O)cc3cc4oc(C)cc(=O)c4c(O)c23)[C@H](O)[C@@H](O)[C@@H]1O,HepaRG co-cultured with HK-2,MTT,,"33.33 µM, 48 h",relative to: untreated control,cell viability,96.6 ± 22.9%
COc1ccc(-n2nc(C(C)=O)s/c2=N\N=C(/C)c2ccc(NC(C)=O)cc2)cc1,WI-38,,,"1.25 µM, 24 (unit not given)",,viability,3.23%
CN/C(=N\[N+](=O)[O-])NCc1cnc(Cl)s1,,,soil,"0 days, nominal 0.12",,concentration,0.07 mg/kg dry soil
CO[C@H]1C[C@@H]2CC[C@@H](C)[C@@](O)(O2)C(=O)C(=O)N2CCCC[C@H]2C(=O)O[C@H]([C@H](C)C[C@@H]2CC[C@@H](OC(=O)NCCOCCOCCOCCOCCOCCOCCOCCOCCC(=O)N3CCc4cc(Cn5nc(-c6ccc7oc(N)nc7c6)c6c(N)ncnc65)ccc4C3)[C@H](OC)C2)C[C@@H](O)[C@H](C)/C=C(\C)[C@@H](O)[C@@H](OC)C(=O)[C@H](C)C[C@H](C)/C=C/C=C/C=C/1C,,,patients with advanced solid tumours,"intravenous, 6 mg weekly, any grade",,mucositis incidence,66.7%
OC(CCN1CC=C(c2ccc(F)cc2)CC1)c1ccc(F)c2ccccc12 (stereo not drawn),Salmonella typhimurium,SOS/umu test,TA1535/pSK1002,"0.016 mg/mL, 4 h, with S9, full range",,survival,88.1%
Cc1cc2c(c(O)c1O)C(=O)c1c(O)cc(O)cc1C2=O,HK-2 co-cultured with HepaRG,MTT,,"33.33 µM, 24 h",relative to: untreated control,cell viability,99.2 ± 12.3%
CCc1ccc(CC/C=C/c2ccc3c(c2)C(=O)CC3)cc1,,,"Sprague-Dawley rat, female, serum","oral, 450 mg/kg/day, 14 days",,potassium,4.34 mM
CN1CC[C@@H](c2c(O)cc(O)c3c(=O)cc(-c4ccc(C(F)(F)F)cc4Cl)oc23)[C@@H]1CO,,item: Pyrexia,AML,"oral, 150 mg, intermittent dosing",,patients with adverse event,25%
CC(C)CC(=O)OC[C@H]1O[C@@](C#N)(c2ccc3c(N)ncnn23)[C@H](O)[C@@H]1O,"ABCB1 (Homo sapiens, UniProt P08183)",,Caco-2,"0.9 µM, 2 h",,efflux ratio,> 3.18
O=[N+]([O-])c1ccc(N2CCN(CCC(O)c3ccc(F)cc3)CC2)c(C(F)(F)F)c1 (stereo not drawn),Salmonella typhimurium,SOS/umu test,TA1535/pSK1002,"0.008 mg/mL, 4 h, without S9, lower range",,survival,92.4%
[Cl-].[Cl-].[Pt+2].[Ru+2].c1ccc(-c2nc3cc4ccccc4cc3nc2-c2ccccn2)nc1.c1cnc2c(c1)ccc1cccnc12.c1cnc2c(c1)ccc1cccnc12,Danio rerio,,embryos,"60 µM, 48 h",,survival rate,80 ± 3.5%
CC(C)=CC1C(C(=O)OC(C#N)c2cccc(Oc3ccccc3)c2)C1(C)C (stereo not drawn),human microsomal CES1,IVIVE from expressed enzymes,"human, 6 months old",,relative to: total hepatic CLint in vivo,relative enzyme contribution,53.7%
COc1cc2ncnc(Nc3cccc(Cl)c3)c2cc1OC,HaCaT,,,"1.235 µM, 60 h",,viability,98.4% and 100% and 95.1%
O=C1c2ccccc2C(=O)c2ccccc21,HepaRG co-cultured with HK-2,MTT,,"33.33 µM, 24 h",relative to: untreated control,cell viability,85.3 ± 3.68%
O=C1c2c(O)c(=O)ccn2N([C@@H]2c3ccccc3SCc3c2ccc(F)c3F)[C@@H]2COCCN12,,,"BALB/c mice, plasma","oral, 15 mg/kg baloxavir marboxil, 4 h",,plasma concentration,70.4 ng/mL
COc1ccc2c(c1OC)C(=O)c1c(cc(C)c(O)c1OC)C2=O,HepaRG co-cultured with HK-2,MTT,,"16.67 µM, 24 h",relative to: untreated control,cell viability,92 ± 16.5%
Cc1cc(C(=O)NC(C)(C)COc2cccc3c2C(N)=NS(=O)(=O)N3)cc(C)n1,Salmonella typhimurium,"Ames test, initial",TA98,"5.00 µg/plate, added: rat liver S9",relative to: solvent control,revertant ratio,0.9

# Excerpt of the above:
Compound,tested on,assay,system,conditions,scale,quantity,result
Cc1cc2c(c(O)c1O)C(=O)c1c(O)cc(O)cc1C2=O,HK-2 co-cultured with HepaRG,MTT,,"33.33 µM, 24 h",relative to: untreated control,cell viability,99.2 ± 12.3%
COc1ccc2c(c1OC)C(=O)c1c(cc(C)c(O)c1OC)C2=O,HepaRG co-cultured with HK-2,MTT,,"16.67 µM, 24 h",relative to: untreated control,cell viability,92 ± 16.5%
O=C1c2ccccc2C(=O)c2ccccc21,HepaRG co-cultured with HK-2,MTT,,"33.33 µM, 24 h",relative to: untreated control,cell viability,85.3 ± 3.68%
